Results collected from several papers.
Every numbered part comes from another study and shows a few of its results, in no order.

Block 1 — technique: universal PBM; molecule type: double-stranded DNA, one strand shown; medium: in vitro; tested at: 600 nM; direction: higher = stronger binding
Target: Sal-like protein 4, full length isoform A (SALL4, Homo sapiens, UniProt Q9UJQ4, residues 1-1053)
Sequence of UniProt Q9UJQ4 (whole entry, looked up): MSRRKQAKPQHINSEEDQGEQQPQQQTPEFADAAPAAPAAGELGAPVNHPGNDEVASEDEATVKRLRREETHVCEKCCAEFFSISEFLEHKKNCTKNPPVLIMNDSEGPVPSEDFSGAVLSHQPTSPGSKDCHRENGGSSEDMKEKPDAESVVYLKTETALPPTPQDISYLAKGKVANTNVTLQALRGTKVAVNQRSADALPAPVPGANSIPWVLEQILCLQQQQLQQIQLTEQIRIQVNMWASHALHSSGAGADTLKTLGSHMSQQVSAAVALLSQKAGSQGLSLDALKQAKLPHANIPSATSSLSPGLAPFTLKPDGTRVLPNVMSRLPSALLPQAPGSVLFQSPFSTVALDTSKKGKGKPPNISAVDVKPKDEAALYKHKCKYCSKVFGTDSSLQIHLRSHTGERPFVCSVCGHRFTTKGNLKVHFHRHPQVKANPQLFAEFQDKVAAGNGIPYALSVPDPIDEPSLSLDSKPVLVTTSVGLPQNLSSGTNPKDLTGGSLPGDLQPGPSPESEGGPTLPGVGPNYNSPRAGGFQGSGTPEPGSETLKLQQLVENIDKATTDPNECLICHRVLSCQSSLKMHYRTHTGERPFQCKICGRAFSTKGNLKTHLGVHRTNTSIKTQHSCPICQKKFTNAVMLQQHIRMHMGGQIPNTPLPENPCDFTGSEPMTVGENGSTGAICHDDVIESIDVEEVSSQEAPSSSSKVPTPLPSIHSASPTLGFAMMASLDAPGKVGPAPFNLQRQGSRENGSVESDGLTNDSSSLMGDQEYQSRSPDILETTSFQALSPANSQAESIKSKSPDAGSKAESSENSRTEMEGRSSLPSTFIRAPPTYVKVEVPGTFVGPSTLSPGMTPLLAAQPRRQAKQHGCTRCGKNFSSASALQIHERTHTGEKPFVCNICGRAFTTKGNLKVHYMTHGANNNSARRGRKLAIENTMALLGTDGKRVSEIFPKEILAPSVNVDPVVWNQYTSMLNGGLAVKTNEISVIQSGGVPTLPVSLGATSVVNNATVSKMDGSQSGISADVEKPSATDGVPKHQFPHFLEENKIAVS
Notes: 8-mer, flanks averaged, mean of replicates
| Sequence | E-score |
| --- | --- |
| GAGCAGAA | 0.0583 |
| CGGGACCG | -0.351 |
| ATTTAATA | 0.417 |
| TAGAGGAA | 0.0724 |
| CTTAGCCC | -0.218 |

Block 2 — technique: protein binding microarray; molecule type: double-stranded DNA, one strand shown; medium: in vitro; tested at: not given; baseline: not given; direction: higher = stronger binding
Target: Histone acetyltransferase KAT6A, both winged helices, GST fusion (KAT6A, Homo sapiens, UniProt Q92794, residues 1-181)
Notes: 8-mer, flanks averaged, mean of 2 arrays, mostly near background
Construct (chain): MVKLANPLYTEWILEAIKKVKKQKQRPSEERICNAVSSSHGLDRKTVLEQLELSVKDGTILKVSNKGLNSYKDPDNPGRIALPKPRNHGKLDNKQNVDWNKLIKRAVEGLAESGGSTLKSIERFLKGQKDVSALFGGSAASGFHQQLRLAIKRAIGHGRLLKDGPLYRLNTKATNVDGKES
| Sequence | E-score |
| --- | --- |
| CCATAGGC | 0.0991 |
| AGCAGTGG | -0.115 |
| GCACTTGA | 0.0722 |
| AGGCGTCG | 0.176 |

Further values, each from its own experiment
RBFOX2 RRM domain, GST-SBP tag: RNA binding protein fox-1 homolog 2, RRM domain, GST-SBP tag (RBFOX2, Homo sapiens, UniProt O43251-10, residues 100-194)
| Substance | target | assay | system | conditions | scale | endpoint | value |
| --- | --- | --- | --- | --- | --- | --- | --- |
| GGGAGUUCUACAGUCCGACGAUCGGCCCCAUUGGAGAGCCAUCCAAACUGAGGAAAAUUAGGGGACUCCAAAAGAGUUUGAUUCUGGCACAUUCUUGCCGCUGCCCCCAAGUUAACAACAGUAGGUAAUUUGCUGGAAUUCUCGGGUGCCAA | RBFOX2 RRM domain, GST-SBP tag | RNA Bind-n-Seq | RNA, in vitro | 365 nM, natural RNA segment, single round, ends assumed | baseline: no-protein control, higher = stronger binding | RBNS enrichment (R) | 0.517 |
| PhoQ, residues 284 288 289 292 302 303 SLKLQV | PhoP, residues 12 14 15 18 19 TPWLV (Escherichia coli, UniProt P23836) | Sort-seq, item: YFP reporter | E. coli | PhoQ-PhoP variant library, with: 10 µM Mg2+ | baseline: high Mg2+ state, higher = stronger signaling | fold induction | 20.2 |
| GGGAGUUCUACAGUCCGACGAUCUGUGUGGAAAGAAAACAGAAGUGAGAAAGAAGUUACCUUGUAUUAUGUAUUUUUACUACACUUUUCUUAAAAAUGGAGCAGUGGGAAAACUCUGAAAGAGAUUGACAUUUUGGAAUUCUCGGGUGCCAA | RBFOX2 RRM domain, GST-SBP tag | RNA Bind-n-Seq | RNA, in vitro | 365 nM, natural RNA segment, single round, ends assumed | baseline: no-protein control, higher = stronger binding | RBNS enrichment (R) | 0.503 |

Repeated from above (block 2):
| Sequence | E-score |
| --- | --- |
| CCATAGGC | 0.0991 |
| GCACTTGA | 0.0722 |
